Values quoted from earlier work as cited in several papers.
Lines come from different studies, so protocols differ. Numbers after ± are the reported error.
Sequence of UniProt Q96D53 (whole entry, looked up): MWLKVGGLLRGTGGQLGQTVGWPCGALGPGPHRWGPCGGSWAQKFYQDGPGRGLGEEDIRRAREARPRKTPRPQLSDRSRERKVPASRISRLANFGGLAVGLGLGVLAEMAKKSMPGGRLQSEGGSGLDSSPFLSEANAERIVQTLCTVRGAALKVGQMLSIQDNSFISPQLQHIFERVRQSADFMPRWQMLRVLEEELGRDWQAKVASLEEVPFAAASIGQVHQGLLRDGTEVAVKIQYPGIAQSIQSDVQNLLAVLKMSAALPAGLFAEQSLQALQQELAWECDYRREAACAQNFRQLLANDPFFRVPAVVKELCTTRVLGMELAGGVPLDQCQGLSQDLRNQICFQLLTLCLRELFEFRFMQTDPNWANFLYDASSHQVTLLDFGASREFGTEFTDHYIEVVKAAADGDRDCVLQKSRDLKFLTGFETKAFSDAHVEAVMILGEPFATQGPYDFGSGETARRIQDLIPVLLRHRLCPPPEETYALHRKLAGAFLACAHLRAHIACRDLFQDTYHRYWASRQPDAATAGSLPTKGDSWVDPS

| SMILES | target or system | test | test system | setting | scale | endpoint | value |
| --- | --- | --- | --- | --- | --- | --- | --- |
| CO[C@@H](C)Cn1c(=O)n(C)c2cnc3ccc(-c4cncc(C(C)(C)O)c4)cc3c21 | CYP1A2 | substrate depletion |  |  |  | fraction of hepatic clearance | 18% |
| CC1(C)S[C@@H]2[C@H](NC(=O)[C@H](N)c3ccccc3)C(=O)N2[C@H]1C(=O)O | Acinetobacter baumannii |  | clinical isolate RKI-No_523/16 |  |  | MIC | > 16 µg/mL |
| NS(=O)(=O)C(F)(F)C(F)(F)C(F)(F)C(F)(F)C(F)(F)C(F)(F)C(F)(F)C(F)(F)F | CYP1A2 |  |  | concentration not given |  | activity | inactive |
| N#CCNC(=O)c1ccc(-c2ccnc(Nc3ccc(N4CCOCC4=O)cc3)n2)cc1 | CYP1A2 | enzyme activity, inhibitor |  | concentration not given |  | inhibition | no inhibition |
| O=C1Nc2ccc(Cl)cc2[C@@](C#CC2CC2)(C(F)(F)F)O1 | CYP1A2 |  |  |  |  | CLint | 0.03 µL/min/mg protein |
| CC(C)Nc1nc2cc(Cl)c(Cl)cc2n1[C@H]1O[C@@H](CO)[C@H](O)[C@@H]1O | CYP1A2 |  |  |  |  | metabolism contribution | 15 to 30% |
| CC(=O)Nc1ccc(O)cc1 | CYP1A2 | substrate |  |  |  | Km | 220 µM |
| CN(C)C(=O)c1cc2cnc(Nc3ccc(N4CCNCC4)cn3)nc2n1C1CCCC1 | CYP1A2 | refers to: caffeine | human | 400 mg once daily, 8 days | relative to: caffeine alone | decrease in Cmax | ~10% |
| Fc1c(F)c(F)c(Br)c(F)c1F | CYP1A2 | inhibitor |  |  |  | IC50 | 46.2 ± 14.8 µM |
| Nc1cc(C(F)(F)F)c(-c2nc(N3CCOCC3)nc(N3CCOCC3)n2)cn1 | COQ8B (Homo sapiens, UniProt Q96D53) | enzyme activity |  | 10 µM | relative to: untreated | remaining activity | 99% |
| CNC(C)C1CCC(N)C(OC2C(N)CC(N)C(OC3OCC(C)(O)C(NC)C3O)C2O)O1 (stereo not shown) | Acinetobacter baumannii |  | clinical isolate RKI-No_271/16 |  |  | MIC | > 8 µg/mL |
| CNCc1cn(S(=O)(=O)c2cccc(F)c2)c(-c2ccc(F)cc2F)c1OC | CYP1A2 | enzyme activity |  |  |  | IC50 | 51.3 µM |
| COc1cc2c(Oc3ccc4[nH]c(C)cc4c3F)ccnc2cc1OCC1(N)CC1 | CYP1A2 | reversible inhibitor |  |  |  | IC50 | > 100 µM |
| FC(F)OC(Cl)C(F)(F)F (stereo not shown) | CYP1A2 | inhibitor |  | Tox21 screening |  | IC50 | 47.7 ± 13.4 µM |
| C=C[C@@H]1C[C@]1(NC(=O)[C@@H]1C[C@@H]2CN1C(=O)[C@H](C(C)(C)C)NC(=O)O[C@@H]1C[C@H]1CCCCCc1nc3ccc(OC)cc3nc1O2)C(=O)NS(=O)(=O)C1CC1 | CYP1A2 | inhibitor | human liver microsomes |  |  | IC50 | > 100 µM |
| FC(F)(F)C(F)(F)C(F)(F)C(F)(F)C(F)(F)C(F)(F)C(F)(F)C(F)(F)C(F)(F)C(F)(F)F | CYP1A2 |  |  | concentration not given |  | activity | inactive |
| N#CCNC(=O)c1ccc(-c2ccnc(Nc3ccc(N4CCOCC4)cc3)n2)cc1 | CYP1A2 |  | human hepatocytes |  |  | contribution to metabolism | 9% |
| C=C(C)C(=O)OCCC(F)(F)C(F)(F)C(F)(F)C(F)(F)C(F)(F)C(F)(F)F | CYP1A2 |  |  | concentration not given |  | activity | inactive |
| COC(=O)N[C@H](C(=O)N1CCC[C@H]1c1nc(-c2ccc3c(c2)O[C@@H](c2ccccc2)n2c-3cc3cc(-c4c[nH]c([C@@H]5CCCN5C(=O)[C@@H](NC(=O)OC)C(C)C)n4)ccc32)c[nH]1)C(C)C | CYP1A2 | inhibitor | human liver microsomes |  |  | IC50 | > 100 µM |

A few entries again:
| SMILES | target or system | test | test system | setting | scale | endpoint | value |
| --- | --- | --- | --- | --- | --- | --- | --- |
| C=C(C)C(=O)OCCC(F)(F)C(F)(F)C(F)(F)C(F)(F)C(F)(F)C(F)(F)F | CYP1A2 |  |  | concentration not given |  | activity | inactive |
